Results from different studies.
± gives the spread as reported.
Cell line: SK-MEL-28

SMILES	test	test system	conditions	endpoint	value
COc1c(C)c2c(c(O)c1C/C=C(\C)CCC(=O)O)C(=O)OC2	cell proliferation	skin cancer	–	IC50	692 nM
COc1cc(CCC[P+](c2ccccc2)(c2ccccc2)c2ccccc2)c(OC)c2c1OCO2.[I-]	SRB	–	–	TGI	-4.85 log M
Cc1cccc(-c2cccc(C)n2)n1.Cc1cccc(-c2cccc(C)n2)n1.F[P-](F)(F)(F)(F)F.F[P-](F)(F)(F)(F)F.[Ru+2].c1ccc2cc(-c3nc4c5cccnc5c5ncccc5c4[nH]3)ccc2c1	cell viability	–	1% O2, added: green light 523 nm, 100 J/cm2	EC50	56300 ± 2200 nM
COc1c(CCC[P+](c2ccccc2)(c2ccccc2)c2ccccc2)cc2c(c1OC)OCO2.[I-]	SRB	–	–	LC50	-4.37 log M
CN1CCN(C2(CNC3CCN(c4cccc(-c5cc6cc(F)ccc6[nH]5)c4)CC3)CCC2)CC1	–	–	–	GI50	1730 nM
N.N.[Cl][Pt][Cl]	cell growth, SRB	–	dark, normoxia	GI50	1110 nM
N.N.[Cl][Pt][Cl]	cell viability	–	dark, 1% O2	EC50	4630 ± 80 nM
Cn1cncc1C1=CN(c2ncnc3[nH]cnc23)CCS1	–	–	melanoma cell line	CC50	> 200000 nM

For quick reference, copied from above:
SMILES	test	test system	conditions	endpoint	value
Cc1cccc(-c2cccc(C)n2)n1.Cc1cccc(-c2cccc(C)n2)n1.F[P-](F)(F)(F)(F)F.F[P-](F)(F)(F)(F)F.[Ru+2].c1ccc2cc(-c3nc4c5cccnc5c5ncccc5c4[nH]3)ccc2c1	cell viability	–	1% O2, added: green light 523 nm, 100 J/cm2	EC50	56300 ± 2200 nM
